Experimental data from different studies.
Numbered parts are unrelated; each lists some results of a single study.

Series 1
Target: RNA binding protein fox-1 homolog 2, RRM domain, GST-SBP tag (RBFOX2, Homo sapiens, UniProt O43251-10, residues 100-194)
Technique: RNA Bind-n-Seq
Form: RNA
Sample: in vitro
Concentration: 365 nM
Setting: natural RNA segment, single round, ends assumed
Relative to: no-protein control
Reading: higher = stronger binding
Endpoint: RBNS enrichment (R)
Shared flanks, not repeated: GGGAGUUCUACAGUCCGACGAUC … UGGAAUUCUCGGGUGCCAA
Residues (chain): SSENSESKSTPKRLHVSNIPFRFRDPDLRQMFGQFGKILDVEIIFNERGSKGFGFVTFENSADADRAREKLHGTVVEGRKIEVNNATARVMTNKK
GGAACUUUCUAGACUCCCGCUCAUUCAAUUGAUCUAGGCAUUUGGGCUUGCUACUUGACCAUUCUCGCCCUGUGAAAUGUCCCACACUUUGAAGCAAAUACAAUUCACAG: 0.391
AUUAAACAGACCUUAGUUUCCAUAUAGAAACUUUAUAACUGAAACACCCUUAAGUAUUUAUAUUCUUUAAUUAUCUGACCCACAAGGAGGGACCUCGGCUUCUUGAGGCA: 1.58
GAAAGUGCCUGUGUCUCACACCAAGAAUCUUGCCUAACCUGUCAGAGUGCCUAAUCUUGUGGUUAUAAUGUACAAUGAAAUAAUCUUGUGGGGGUUUUUUGUUUUCUCAA: 0.919
UUAGCCUCAGGCCUCAUGAGGGUCUCCACAGGGCCGGAGCUCAGGUUACACCACUCCUUCGUCCUUACAGGAGAUGUAGGGAGAAGAAUCUGCAGGCUGCUUGUAGGACU: 0.288
ACUGCCAGCUUCCGCUUCUCUGUGCUCUGUGUCUGCGGUUUACAUAUAGAUCGUCCCCCUGGAAACUGAGGCAUGAGCUCUUCCUCAGAAGUCUGUGAGGGUGAAUGCUA: 0.969
UAUUCAGACCUUCAUGAUCAUCCAUCUGGUGAGCAGAGCUUCAUUUGUAUAUAACACUUUCAGAGCCUUCCCACCCAUAGGUAGUUCUUAAACCAGGUGAAAGAGCAAAG: 0.457
AUUUAGGCAGAAGCAAAACAGGAAACCAUCCUUACAAACAUGCUUACCUGCACAUCUGUUUGCAUGGUCAUGUGUACAUUCAAACAUGCACAUAAAGUGAACAAGAAAGU: 0.398
ACUUUAGAUAGCAGAAUUAUUUGCAAUUUGUAGCAUAGAAAAGAUUUUUAAAUUUUUUUACAAAAGGUUUUUAAACAGAUUAGGGUAGGUGAUGGUUUAAAUCAAUUAAG: 0.696
UCAGGAUUCAGUCACCCAAUUUUAACACACCCCAGUGGUACUCCCCGACCCAGGCCCCCAAAUCUGGGCUGUUGUGGAACACCCAUGACUUAAGCCUUUCUCCAAGUCUG: 0.402
AAUAGCUCUUGUAAAAGGUCACAAUAACUCUAUGCACCUGAUACUGCAGUGGUUCCUAGGCCAUUCUUCAUCUGCUCUGGACAUCUCAGUCAUACCCAAUGCUCAGUGGA: 0.487
CUAUACUGCACUUACGCUAUCCAGUUGCAGGUAAUUUUUUGUCUGCUAGUAGUGUUCUAGAUUAUGUCUUUCCAAAGCGCUGAGGCUGUGCACCUAUUCUGUAGUUGCAG: 0.921
AAAGAAAAAUACAAGACAAAAACCUUCUAGCACUUUGUAAACACAGUGAAUAACCUCUUGGAGUAUUUUUGGCUUUAUAUAAAACAAGGUUUUUAAUUGUAAAAUAUAAG: 0.742

Series 2
Target: Fragile X messenger ribonucleoprotein 1, C-terminal low-complexity region (Fmr1, Mus musculus, UniProt P35922)
Technique: RNA Bind-n-Seq
Form: RNA
Sample: in vitro
Concentration: 200 nM
Setting: whole 134-nt RNA, ends assumed
Added: 150 mM LiCl
Relative to: input library
Reading: higher = stronger binding
Endpoint: log2 enrichment
Each molecule: 7-deaza-guanosine replaces G
Shared flanks, not repeated: GGGAGUUCUACAGUCCGACGAUC … UGGAAUUCUCGGGUGUCAAGG
GCAGGAAGUAAAAACAAAUGGAAAAACUUCGGAUAGUGGCAGGGGUGGGGGUUGCUAAGGAAAGGGUGGGAUGGGAGUGGGUAAAGAGUU: 1.55
ACCAUGCAGGUGGGCAUCUUUGGGAAGUGGGGCAAGGGGGGGAUAGGGAGGGGGGUAACACUUUGGGAACAGGUGAAACCAGGUCGUUUC: 1.16
CUCAAGUCCUGUGCUACACAUCGUAUGUACCGAAUCGGUUUUUGGAAAGGUGGAAAGUAUUAUGUUACGCCGUUCGGAUCUGCACUUCCA: -0.404
ACCAUGCAGGUGGGCAUCUUUGGGAAAAGGGGCAAGGGGGGGAUAGGGAGGGGGGUAACACUUUGGGAACAGGUGGUCCCAGGUCGUUUC: 1.4
CCUGUGCUACACAUCGUAUGUACCGAAUCGGCCCCCCCGGGCCCCCCCGGCCCCCCCGGGGAAAGUAUUAUGUUACGCCGUUCGGAUCUG: 0.0943
ACCAUGCAGGUGGGCAUCUUUGGGAAGUGGGGCUAGGGGGGGAUAGGGAGGGGGGUAACACUUUGGGAACAGGUGGUCCCAGGUCGUUUC: 1.23
UGGCCCUGGUGGCAUGCGGGGAGGAAGAGGUGGCCUCAUGGAUCGUGGUGGUCCCGGUGGAAUGUUCAGAGGUGGCCGUAGUGGAGACAG: -0.661
AGUCCUGUGCUACACAUCGUAUGUACCGAAUCGGGGUUUUUGGUUUUUGGGUUUUUGGAAAGUAUUAUGUUACGCCGUUCGGAUCUGCAC: -1.61
CUCAAGUCCUGUGCUACACAUCGUAUGUACCGAAUCGGCGGGGCGGGGCGGGGAAAGUAUUAUGUUACGCCGUUCGGAUCUGCACUUCCA: 0.362
UUCAAGGAAAAACAAGAGGAGCAGGCUCGCCUCCUUGAUGAACUGGCAGGCAAGCUACAAAGCCUAGACCUUUCAGCCGCUGCCGAAAUG: -3.17
ACCAUGCAGGUGGGCAUCUUUGGGAAGUGGGGCAAGGUGGGGAUAGGGAGGGGGGUAACACUUUGGGAACAGGUGGUCCCAGGUCGUUUC: 0.839

Series 3
Target: Histone acetyltransferase KAT6A, winged helix 1, GST fusion (KAT6A, Homo sapiens, UniProt Q92794, residues 1-85)
Technique: protein binding microarray
Form: double-stranded DNA, one strand shown
Sample: in vitro
Concentration: not given
Setting: 8-mer, flanks averaged, mean of 2 arrays, mostly near background
Relative to: not given
Reading: higher = stronger binding
Endpoint: E-score
Residues (chain): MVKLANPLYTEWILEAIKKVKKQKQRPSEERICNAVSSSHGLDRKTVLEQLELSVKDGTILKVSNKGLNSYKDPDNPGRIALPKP
AGCGATAT: 0.0331
CGTACTAA: 0.126
ATACGAGG: -0.0988
GCGTCGCA: 0.367
AACCCATC: -0.123
ATCCGCGA: 0.268
CCGAGCCC: 0.204
AAAAGACT: -0.0714
CACAAATG: -0.172
CTGGGTGA: -0.136
ATATAATG: -0.151
TCGCCGAA: 0.154
GACCAGTC: -0.109
CTTAGGGC: -0.0243
GCATATAA: -0.049
GCATTTAC: 0.00442
AAAGAACA: -0.219
ACGGACTA: 0.0996
CACAGCAA: -0.00194
AGTCTCTC: -0.0941
CTTCTATC: -0.0652
AGGTGCCA: -0.311
CCCTGAGG: -0.12
CTGACCAC: -0.307
ACTCTACT: -0.193

Series 4
Target: Sal-like protein 4, full length isoform B (SALL4, Homo sapiens, UniProt Q9UJQ4-2, residues 1-616)
Technique: universal PBM
Form: double-stranded DNA, one strand shown
Sample: in vitro
Concentration: not given
Setting: 8-mer, flanks averaged, mean of replicates
Reading: higher = stronger binding
Endpoint: E-score
CCGCTCAG: -0.248
AAGTGCTG: -0.0107
CACCTCTC: -0.111
GGTCTGCA: -0.206
CGGCTTCC: -0.298
AGGTAGTC: -0.123
AAGACTCG: -0.111
CATGTACC: -0.189
GCCCTGTA: -0.0654
ACCGAATA: 0.154
CAGCTGTC: -0.12
CGTGTCGA: -0.179
AACCGGTA: -0.145
GCAATAGA: 0.08
CCGCAGTA: -0.105
ACGCTAAT: 0.102
AGGGGCTG: -0.276
GGTTTCAC: -0.0393
CAGTAATC: -0.0423
GAGCACGA: -0.0686
CGAGTCCG: -0.0711
CGTCGACG: -0.28
GTTATTCA: 0.273
GGGTGCAA: -0.198
ACTAATTC: 0.107

Series 5
Target: Prothrombin, mature alpha-thrombin (F2, Homo sapiens, UniProt P00734)
Technique: aptamer microarray, sandwich
Form: DNA with 2'F-ANA
Sample: in vitro
Concentration: 200 nM
Setting: whole 15-mer aptamer, many near background
Added: Cy3 exosite-II aptamer, 400 nM
Reading: higher = stronger binding
Endpoint: mean fluorescence intensity
Sequence: GGTTGGTGTGGTTGG
2'F-ANA at 2 3 4 5 6 8 11 12 13 15: 100 a.u.
2'F-ANA at 1 3 4 5 6 9 12 13: 81.3 a.u.
2'F-ANA at 1 2 3 4 6 9 10 11 13 14 15: 52.9 a.u.
2'F-ANA at 3 4 5 6 9 11 12: 155 a.u.
2'F-ANA at 2 5 8 12 15: 169 a.u.
2'F-ANA at 1 2 3 4 5 11 13: 47.8 a.u.
2'F-ANA at 3 4 6 8 9 10 11 12 14: 207 a.u.
2'F-ANA at 1 3 4 9 10 14: 51.7 a.u.
2'F-ANA at 1 8 9 15: 253 a.u.
2'F-ANA at 4 10 12 13: 96.6 a.u.
2'F-ANA at 3 5 9 10 13 14: 51.7 a.u.
2'F-ANA at 1 2 3 4 6 7 13: 103 a.u.
2'F-ANA at 4 7 10 12: 127 a.u.
2'F-ANA at 4 7 8 9 10 11 12 14 15: 70.6 a.u.
2'F-ANA at 1 2 3 6 9 10 11 13 14: 71.1 a.u.
2'F-ANA at 4 6 8 9 11 12 13 14 15: 83.2 a.u.
2'F-ANA at 2 5 6 7 8 11: 67.5 a.u.
2'F-ANA at 1 2 6 9 11 12 13 14 15: 58.4 a.u.
2'F-ANA at 3 4 5 6 8 10 12 13 14: 84.5 a.u.
2'F-ANA at 3 5 10 12 15: 85.4 a.u.
2'F-ANA at 1 2 3 4 6 7 8 9 10 11 12: 67.2 a.u.
2'F-ANA at 2 4 5 7 8 9 11 12 14: 45.9 a.u.
2'F-ANA at 2 6 7 9 10 14: 103 a.u.
2'F-ANA at 2 3 5 6 7 9 10: 79.7 a.u.
2'F-ANA at 2 5 7 8 11 14 15: 47.6 a.u.
